Published values collected from several papers.
Compare with care: the assays were run in different laboratories. ± marks the error that the study gave.
Target: Urease (Canavalia ensiformis, UniProt P07374)
Chain of UniProt P07374 (whole entry, looked up): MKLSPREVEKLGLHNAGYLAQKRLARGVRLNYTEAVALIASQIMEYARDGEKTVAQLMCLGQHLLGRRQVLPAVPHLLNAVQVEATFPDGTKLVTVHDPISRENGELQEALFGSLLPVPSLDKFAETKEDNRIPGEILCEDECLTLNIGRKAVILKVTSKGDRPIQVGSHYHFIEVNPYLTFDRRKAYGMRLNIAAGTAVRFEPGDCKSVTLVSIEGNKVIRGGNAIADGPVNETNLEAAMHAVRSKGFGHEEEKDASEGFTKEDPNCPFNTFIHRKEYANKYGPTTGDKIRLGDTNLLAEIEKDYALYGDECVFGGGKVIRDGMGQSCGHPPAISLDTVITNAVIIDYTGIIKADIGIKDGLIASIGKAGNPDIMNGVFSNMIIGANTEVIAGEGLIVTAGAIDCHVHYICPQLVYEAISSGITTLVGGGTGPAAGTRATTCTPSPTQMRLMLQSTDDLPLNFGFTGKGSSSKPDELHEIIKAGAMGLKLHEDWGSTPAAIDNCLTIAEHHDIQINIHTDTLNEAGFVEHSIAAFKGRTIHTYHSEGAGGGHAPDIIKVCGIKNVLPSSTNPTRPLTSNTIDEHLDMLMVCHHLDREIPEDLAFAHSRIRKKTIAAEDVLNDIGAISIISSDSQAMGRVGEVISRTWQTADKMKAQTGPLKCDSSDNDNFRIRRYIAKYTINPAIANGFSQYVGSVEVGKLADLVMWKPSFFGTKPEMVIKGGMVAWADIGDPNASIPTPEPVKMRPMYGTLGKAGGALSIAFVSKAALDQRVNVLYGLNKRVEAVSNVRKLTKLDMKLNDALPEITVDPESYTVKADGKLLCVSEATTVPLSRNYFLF
Mode: inhibitor

The IC50 of `CC(O)c1nc2ccc(Cl)cc2[nH]1` (racemic) is reported as 38 µM (enzyme activity, absorbance).
`COC(=O)C1=C(C)NC(=O)CC1c1ccccc1OC` (stereo not shown) gave an IC50 of 158 µM (enzyme activity, absorbance; pH 7.4).
With `COc1ccc(-c2nnc3sc(COc4ccc(F)cc4)nn23)cc1` the IC50 was 6.65 µM (enzyme activity).
With `COC(=O)C1=C(C)NC(=O)CC1c1cccc([N+](=O)[O-])c1` (stereo not shown) the IC50 was 48.8 µM (enzyme activity, absorbance; pH 7.4).
For `Cc1ccc2[nH]c(C(C)O)nc2c1` (racemic), the IC50 was 36 µM (enzyme activity, absorbance).
The IC50 of `COc1cc(/C=N/NC(=O)c2ccc(C(=O)N/N=C/c3cc(OC)c(OC)c(OC)c3)cc2)cc(OC)c1OC` is reported as 74.4 µM (enzyme activity).
The IC50 of `COC(=O)C1=C(C)NC(=O)CC1c1ccc(OC)cc1` (stereo not shown) is reported as 120 µM (enzyme activity, absorbance; pH 7.4).
With `O=C(N/N=C/c1cccc(O)c1)c1ccc(C(=O)N/N=C/c2cccc(O)c2)cc1` the IC50 was 63.1 µM (enzyme activity).
`COc1ccc(-c2nnc3sc(COc4ccccc4O)nn23)cc1` has an IC50 of 32.9 µM (enzyme activity).
With `O=C(N/N=C/c1cccc(O)c1O)c1ccc(C(=O)N/N=C/c2cccc(O)c2O)cc1` the IC50 was 49.2 µM (enzyme activity).
With `COC(=O)C1=C(C)NC(=O)CC1c1ccc([N+](=O)[O-])cc1` (stereo not shown) the IC50 was 29.1 µM (enzyme activity, absorbance; pH 7.4).
With `COc1cc(-c2nc3cc(C(=O)N4CCN(c5ccccc5)CC4)ccc3[nH]2)ccc1OCC(=O)NCc1ccccc1` the IC50 was 2.99 ± 0.02 µM (pH 7.4).
For `COc1ccc(-c2nnc3n2N=C(c2ccc(-c4ccccc4)cc2)CS3)cc1`, the IC50 was 3.51 µM (enzyme activity).
